# Published values gathered from unrelated publications.
# Compare with care: the assays were run in different laboratories. ± gives the spread as reported.
Compound,assay,system,setting,how to read,endpoint,value
CC(C)[C@H](NC(=O)[C@@H]1CCCN1C(=O)[C@H](CCCNC(=N)N)NC(=O)[C@H](CS)NC(=O)[C@H](Cc1c[nH]c2ccccc12)NC(=O)[C@H](CCCNC(=N)N)NC(=O)[C@@H](Cc1ccccc1)NC(=O)[C@H](Cc1c[nH]cn1)NC(=O)[C@H](CCC(=O)O)NC(=O)[C@H](CS)NC(=O)[C@H](CS)NC(=O)[C@@H]1CC(=O)N[C@@H](CCCNC(=N)N)C(=O)NCC(=O)N[C@@H](CC(=O)O)C(=O)N[C@H](Cc2ccc(O)cc2)C(=O)N1)C(N)=O [technetium-99m labelled],,"C57 mouse, female, B16/F1 melanoma","intravenous, 0.037 MBq, 4 h",relative to: tumour over liver,tumour to tissue ratio,7.81
C[Si]1(C[C@H](CN)CC(=O)O)CCCC1,,"Sprague-Dawley rat, male, brain","oral, 30 mg/kg, estimated as Cmax x Kp",,brain Cmax,4.8 µM
N=C(N)NCCC[C@@H]1NC(=O)[C@H](Cc2c[nH]c3ccccc23)NC(=O)[C@@H](CC2CCCCC2)NC(=O)[C@@H]2CCCN2C(=O)[C@@H](NC(=O)CCc2ccccc2)CCCNC1=O,,"C57BL/6J mice, urine",,relative to: oral over intravenous,oral absorption,~20%
COc1ccc(/N=N/c2ccc(OC[C@@H](O)CNC(C)C)cc2)cc1,UV/Vis spectroscopy,Epac buffer with 0.5 % DMSO,50 µM,,"n-pi* absorption maximum, cis",440 nm
Cc1ccc(OCC(=O)N(Cc2cccs2)c2ccn[nH]2)cc1,,"male Sprague-Dawley rat, plasma","oral, 10 mg/kg, single dose",,Tmax,0.75 h
COC(=O)C(c1ccccc1Cl)N1CCC(SCC(=O)c2cccc(OC)c2)C(=CC(=O)O)C1 (mixture of isomers),HPLC-MS/MS,feline EDTA plasma,"100 ng/mL, 12 h, -20 °C, storage stability",,deviation from nominal,6%
O=C([O-])CN1CCN(CC(=O)[O-])CCN(CC(=O)NCC2CCC(C(=O)NC(Cc3ccc4ccccc4c3)C(=O)NCCCCC(NC(=O)NC(CCC(=O)O)C(=O)O)C(=O)O)CC2)CCN(CC(=O)[O-])CC1.[44Sc+3] (stereo not shown),transmetallation stability,,"1 h, 37 °C, added: Ca2+ 10 mM",,intact complex,98.3 ± 0.5%
CC[C@@H](C)[C@@H](NC(=O)[C@@H](C)NC(=O)[C@@H](CCCCN)NC(=O)[C@@H](CC(C)C)NC(=O)[C@@H](CC(C)C)NC(=O)[C@H](NC(=O)[C@@H](CCCCN)NC(=O)[C@@H](CC(C)C)NC(=O)[C@@H](C)NC(=O)[C@@H](CCCCN)NC(=O)[C@@H](CCCCN)NC(=O)[C@@H](CCCCN)NC(=O)[C@@H](C)NC(=O)[C@@H](CCCCN)NC(=O)[C@@H](CO)NC(=O)[C@@H](Cc1ccccc1)NC(=O)[C@H](NC(=O)[C@@H](CCCCN)NC(=O)[C@@H](CC(C)C)NC(=O)[C@@H](Cc1ccccc1)NC(=O)[C@@H](CO)NC(=O)[C@@H](CCCCN)NC(=O)[C@@H](Cc1c[nH]c2ccccc12)NC(=O)[C@@H](CCCCN)NC(C)=O)[C@H](C)O)[C@H](C)O)C(=O)N[C@H](CO)C(=O)N[C@H](CCCCN)C(N)=O,circular dichroism,aqueous buffer,"pH 7.0, 5 °C",relative to: reference peptide in TFE,helical content,28%
OCc1cn(Cc2ccc(-c3noc(-c4ccc(OCC[18F])c(C(F)(F)F)c4)n3)cc2)nn1,,"Lewis rats, female, striatum","intravenous, 5 min",,brain uptake,0.47 %ID/g
COc1cccc([O-])c1C=NCCCN(C)CCN(C)CCCN=Cc1c([O-])cccc1OC.[67Ga+3],,rat,"intravenous, 1 min",relative to: heart over blood,tissue uptake ratio,1.86 ± 0.08
CCC(=C(c1ccc(Cl)cc1)c1ccc(OCCN2CCOCC2)cc1)c1ccc(OC)cc1,,"female C57BL/6 mouse, plasma","oral, 400 mg/kg, single dose",,AUC(0-inf),55400 ng·h/mL
CC(C)(O)c1ncc([S@](N)(=O)=NC(=O)Nc2c3c(cc4c2CCC4)CCC3)s1,,"healthy human volunteers, plasma","oral, 200 mg once daily, day 14, spray-dried dispersion",,half-life,12.5 h
C[C@@H]1O[C@@H](O[C@@H]2[C@@H](O)[C@H](O)[C@@H](CO)O[C@H]2c2c(O)cc(O)c3c(=O)cc(-c4ccc(O)cc4)oc23)[C@H](O)[C@H](O)[C@H]1O,in situ intestinal perfusion,"rat, small intestine","dose not given, 3 h",,Papp,0.031 to 0.141 ×10⁻⁶ cm/s
CN[C@@H]1[C@H](O)[C@H](NC)[C@H]2O[C@]3(O)[C@H](O[C@@H]2[C@H]1O)O[C@H](C)C[C@@]3(O)CNCCc1ccc(C)cc1,,"male BALB/c mouse, plasma","intravenous, 10 mg/kg",,C0,38000 to 74000 ng/mL
O=C(CCc1ccc(CNC(C(=O)OC2CCCC2)C2CCCCC2)cn1)NO (stereo not shown),,"human, plasma","oral, 20 mg once daily, day 7, geometric mean",,AUC(tau),98.8 ng·h/mL
NC[C@@H](C(=O)Nc1ccc(-c2cn[nH]c2)cc1)c1ccccc1,OECD 405 eye irritation,"New Zealand White rabbit, eye","topical, 0.1%, 97 h (day 5)",direction not given,total eye irritation score,1
CC[C@H](C)[C@H](NC(=O)[C@H](N)Cc1ccc(O)cc1)C(=O)N[C@H]1CSSC[C@@H](C(=O)N(C)[C@H](C(N)=O)[C@@H](C)CC)NC(=O)[C@H](CCCNC(=N)N)NC(=O)[C@H](Cc2c[nH]cn2)NC(=O)[C@H](C)NC(=O)CN(C)C(=O)[C@H](Cc2c[nH]c3ccccc23)NC(=O)[C@H](CC(=O)O)NC(=O)[C@H](CCC(N)=O)NC(=O)[C@H](Cc2cn(C)c3ccccc23)NC(=O)[C@H](C(C)C)NC1=O,UPLC-ESI-MS,human plasma,"3.58 µg/mL, 48 h, 4 °C, autosampler after SPE",,recovery,99.4 ± 0.3%
CC(C)C[C@@H](NC(=O)[C@H](NC(=O)[C@H]1CCCN1)[C@H](C)O)C(=O)N[C@H](Cc1c[nH]cn1)C(=O)N[C@@H](C(=O)N[C@H](Cc1c[nH]cn1)C(=O)N[C@H](CC(N)=O)C(=O)N[C@H](CCCNC(=N)N)C(=O)N[C@H](CCCNC(=N)N)C(=O)N[C@H](CCCNC(=N)N)C(=O)N[C@H](CCCNC(=N)N)C(=O)N[C@H](CCCNC(=N)N)C(N)=O)[C@H](C)O,,"Beagle dog, plasma","oral, 50 mg/kg",,AUC share of terminal phase,76%
Cn1c(=O)oc2ccc(-c3ccc(CC(C#N)NC(=O)C4CNCCCO4)c(F)c3)cc21 (stereo not shown),,human,"oral, 40 mg once daily, TEAE, multiple ascending dose",,bacterial test positive incidence,22.2%
O=C(O)C1CN(Cc2ccc(-c3noc(-c4ccc(OCC[18F])c(C(F)(F)F)c4)n3)cc2)C1,,"rat, spleen","intravenous, 5 min",,tracer uptake,0.589 %ID/g
COc1ccnc(C[S+]([O-])c2nc3cc(-n4cccc4)ccc3[nH]2)c1C (stereo not shown),,"male Sprague Dawley rats, plasma","oral, 5 mg/kg ilaprazole racemate",,Vz/F,76.3 ± 112 L/kg
C=CC(=O)Nc1cc(Nc2nccc(-c3cn(C4CC4)c4ccccc34)n2)c(OC)cc1NC,radio-HPLC,"human male, feces","oral, 110 mg, 48 to 96 h, sample holds 20.06% dose",relative to: dose,excreted amount,0.17%
Cc1cc(O)cc(O)c1C(=O)c1c2c3c(c(O)cc(C)c3oc1=O)C(=O)c1c(O)cc(O)cc1-2,,Caco-2,"100 µM, 3 h, pH 7.4",,Papp B→A,0.067 ×10⁻⁶ cm/s
COc1cc(NC(C)=O)c2c(c1O)-c1c(OC)c(OC)cc3c1C(C2)N(C)CC3 (stereo not shown),,rat lung homogenate,"50 µg/mL, time not given, three freeze-thaw cycles",,remaining compound,104 ± 5.3%
[11CH3]c1ccc2nc(C3CCC3)n(-c3ccc4[nH]ncc4c3)c2n1,radio-HPLC,"Sprague-Dawley rat, plasma",10 min,,intact parent fraction,55%
CN1CCC[C@]1(C)/C=C/S(=O)(=O)NC(=O)Nc1c2c(cc3c1CCC3)CCC2,,"human, plasma","oral, 50 mg twice daily, day 14, multiple ascending dose",,"Tmax after first dose, median",1 h
COc1ccc(-c2csc(N/N=C(\C)c3cc(O)cc(O)c3)n2)cc1,LC-MS/MS,rat plasma,"1000 ng/mL, freeze-thaw 5 cycles at -70 °C",,concentration after storage,898 ng/mL
CC(C)c1cnc(-c2cc(Cl)ccc2F)cc1Nc1ccncc1C(=O)NC(CO)CO,,"patients, phase I monotherapy","oral, dose not given, grade 1",,patients with AST increase,14.3%
CCc1c2c(nc3ccc(O)cc13)-c1cc3c(c(=O)n1C2)COC(=O)[C@]3(O)CC,,"human patients, plasma","intravenous, 42 mg/m^2 of parent drug",,Tmax,1.52 h
O=C(NCCCN(CCCCN(CCCNC(=O)c1cccc(=O)n1[O-])C(=O)c1cccc(=O)n1[O-])C(=O)c1cccc(=O)n1[O-])c1cccc(=O)n1[O-].[89Zr+4],,"mouse, bone",24 h,,tracer uptake,0.17 %ID/g
O=[N][Fe]1([N]=O)[S](CCO)[Fe]([N]=O)([N]=O)[S]1CCO,,C57BL/6JNarl mice,,relative to: oral over intravenous AUC,oral bioavailability,6.5%
CCCC[C@H](NC(=O)CNC(=O)CNC(=O)CN1CCN(CC(=O)O)CCN(CC(=O)O)CCN(CC(=O)O)CC1)C(=O)N[C@H]1CC(=O)NCCCC[C@@H](C(N)=O)NC(=O)[C@H](Cc2c[nH]c3ccccc23)NC(=O)[C@H](CCCNC(=N)N)NC(=O)[C@@H](Cc2ccccc2)NC(=O)[C@H](Cc2c[nH]cn2)NC1=O [gallium-67 labelled],,"female C57 mice, B16/F1 melanoma, liver","intravenous, 0.037 MBq, 2 h",,tissue uptake,0.86 ± 0.19 %ID/g
CC(=O)N[C@H](CCNC(=O)c1cc(NC(=O)c2cc(NC(=O)c3cc(NC(=O)c4nccn4C)cn3C)cn2C)cn1C)C(=O)Nc1cn(C)c(C(=O)Nc2cc(C(=O)Nc3cc(C(=O)Nc4cc(C(=O)NCCCN(C)CCCN[14C](=O)c5cccc([14C](=O)O)c5)n(C)c4)n(C)c3)n(C)c2)n1,,BALB/c male mouse,"intraperitoneal, 15 nmol per animal, 24 h",,pancreas concentration,0.15 mg/kg
O=C(O)c1cccc(S(=O)(=O)Nc2ccccc2)c1,,"human, severe liver dysfunction, plasma","intravenous, 400 mg/m^2 belinostat, cycle 1 day -7, geometric mean",relative to: metabolite over belinostat,AUC(0-inf) metabolic ratio,0.825
Cc1ccc(-c2ccc(-c3cc4sccc4o3)cn2)nc1,TCSPC,acetonitrile,zinc complex,,radiative decay rate constant,0.15 ns⁻¹
O=C1OC2(c3ccccc31)c1cc(I)c(O)c(I)c1Oc1c2cc(I)c(O)c1I,,"female C57BL/6 mouse, plasma","intraperitoneal, 50 mg/kg",,AUC(0-inf),54200 ng·h/mL
O=C([O-])CN1CCN(CC(=O)[O-])CCN(CC(=O)c2ccc(-c3ccc(OCC(=O)O)cc3)cc2)CCN(CC(=O)[O-])CC1.[Gd+3],,,"concentration not given, SAP isomer",,activation enthalpy of water exchange,13.1 kcal/mol
Brc1ccc(Nc2nc(NN=Cc3c[nH]c4ccccc34)nc(N3CCOCC3)n2)cc1,,mouse liver microsomes,in vivo extrapolated,,hepatic clearance,2.4 mL/min
Cc1ccc(C(=O)OCc2ccc([C@@H](CN)C(=O)Nc3ccc4cnccc4c3)cc2)c(C)c1,,aqueous solution,"7 d, pH 4.8, 5 °C, added: timolol maleate",,content remaining,< 50%
CC[N+]1(Cc2ccc3ccc(O)c(C#N)c3n2)CCCC1CNC(=O)c1cc(S(N)(=O)=O)ccc1OC (stereo not shown),,KMOPS buffer,"0.1 mM, pH 7.2",,ε365,6500 M⁻¹ cm⁻¹
NCC(=O)N1CCC[C@H]1C(=O)N1C[C@H](O)C[C@H]1C(=O)O,potentiometric titration,,"37 °C, MA3 complex, added: Fe(III)",,log beta,28.8
COCCOCCOCCOCCOCCOCCOCCOCCC(=O)NCCCc1cc2cc3nc(cc4[nH]c(cc5nc(c(OC)c1[nH]2)C(=O)C5(C)C)cc4CCc1ccc(C(=O)O)cc1)CC3(C)C,,water with 5% DMF,room temperature,,kf^−1,37 ns
CC[C@H](C)[C@H](NC(=O)[C@H](CC(C)C)NC(=O)[C@H](Cc1c[nH]c2ccccc12)NC(=O)[C@H](C)NC(=O)[C@@H](NC(=O)[C@H](Cc1ccccc1)NC(=O)[C@H](CC(=O)O)NC(=O)[C@H](CCCNC(=N)N)NC(=O)[C@H](C)NC(=O)[C@H](C)NC(=O)[C@H](CC(C)C)NC(=O)[C@H](C)NC(=O)[C@H](CC(=O)O)NC(=O)[C@H](CC(C)C)NC(=O)[C@@H](NC(=O)[C@@H](NC(=O)[C@H](C)NC(=O)[C@H](CC(C)C)NC(=O)[C@H](CCC(=O)O)NC(=O)[C@H](CO)NC(=O)[C@H](CO)NC(=O)[C@H](Cc1ccccc1)NC(=O)[C@@H](NC(=O)CNC(=O)[C@H](CCC(=O)O)NC(=O)CNC(=O)[C@@H](N)Cc1cnc[nH]1)[C@@H](C)O)[C@@H](C)O)[C@@H](C)CC)[C@@H](C)CC)C(=O)N[C@@H](C)C(=O)N[C@H](C(=O)N[C@@H](CCCCN)C(=O)N[C@H](C(=O)N[C@H](C(=O)N[C@@H](CC(=O)O)C(=O)N[C@@H](CCCCN)C(=O)N[C@@H](CCCCN)C(=O)N[C@@H](CCCCN)C(=O)N[C@@H](CCCCN)C(=O)N[C@@H](CCCCN)C(=O)N[C@@H](CCCCN)C(N)=O)[C@@H](C)O)[C@@H](C)CC)[C@@H](C)O,,"healthy humans, plasma","subcutaneous, 5 mg once weekly, 6 doses, day 36, geometric mean",,AUC(0-last),0.119 µM·h

# A few entries again:
Compound,assay,system,setting,how to read,endpoint,value
OCc1cn(Cc2ccc(-c3noc(-c4ccc(OCC[18F])c(C(F)(F)F)c4)n3)cc2)nn1,,"Lewis rats, female, striatum","intravenous, 5 min",,brain uptake,0.47 %ID/g
COc1cccc([O-])c1C=NCCCN(C)CCN(C)CCCN=Cc1c([O-])cccc1OC.[67Ga+3],,rat,"intravenous, 1 min",relative to: heart over blood,tissue uptake ratio,1.86 ± 0.08
CCC(=C(c1ccc(Cl)cc1)c1ccc(OCCN2CCOCC2)cc1)c1ccc(OC)cc1,,"female C57BL/6 mouse, plasma","oral, 400 mg/kg, single dose",,AUC(0-inf),55400 ng·h/mL
